Measured values collected from several papers.
Lines come from different studies, so protocols differ. ± gives the spread as reported.
rep main protease: Replicase polyprotein 1ab, main protease (rep, Severe acute respiratory syndrome coronavirus 2, UniProt P0DTD1)

With `O=C(NCCN1CCCCC1)c1ccc(-c2ccc(N3CCSCC3)nc2)cc1` the AC50 was 12.6 µM (SARS-CoV-2; cytopathic effect, cell-based CPE; USA_WA1/2020; round 2, 5-point dilution).
`CC(C)(C)[C@H](NC(=O)C(F)(F)F)C(=O)N1C[C@H]2[C@@H]([C@H]1C(=O)N[C@H](C#N)C[C@@H]1CCNC1=O)C2(C)C` has an inhibition of 3.4% (SARS-CoV-2; viral replication, infectious virus; Vero E6; 0.0005 µM).
`CC(C)(C)N1CCC(c2ccccc2)(c2ccccc2)CC1` has a maximum response of 23.6% (SARS-CoV-2; cytopathic effect; USA_WA1/2020; retest, 8-point, duplicates).
`O=C(O[C@@H]1Cc2c(O)cc(O)cc2O[C@@H]1c1cc(O)c(O)c(O)c1)c1cc(O)c(O)c(O)c1` has a CPE inhibition of 0% (SARS-CoV-2; viral replication; Vero E6; 12.5 µM; relative to: mean of replicates).
With `CCOc1ccc(NC(=O)c2cnn(-c3ccc(C)c(Cl)c3)c2C2CCNCC2)cc1` the maximum response was 88.9% (SARS-CoV-2; cytopathic effect; USA_WA1/2020; round 1, 5-point).
`Cc1cccc(/C=N/Nc2cc(N3CCOCC3)nc(OCCc3ccccn3)n2)c1` has an EC90 of 0.0374 µM (SARS-CoV-2; viral replication; 293T-ACE2, USA-WA1/2020).
The viral titre of `Cc1nn(-c2ccc(Cl)cc2)c2c1C(c1ccc(Cl)cc1)C(C#N)=C(N)O2` (stereo not shown) is reported as 920000 IU/mL (SARS-CoV-2; Vero; 1 µM).
With `CCN(CCO)CCCC(C)Nc1ccnc2cc(Cl)ccc12` (single isomer, unassigned) the EC50 was greater than 50.1 µM (SARS-CoV-2; viral replication, high-content imaging screen; BetaCov/Belgium/GHB-03021/2020; cell-based).
For `COc1ccc(C[C@@H]2c3cc(Oc4cc(C[C@@H]5c6cc(O)c(OC)cc6CCN5C)ccc4O)c(OC)cc3CCN2C)cc1`, the CPE inhibition was 0% (SARS-CoV-2; viral replication; Vero E6; 25 µM).
`Nc1ccn([C@@H]2O[C@H](CO)[C@@H](O)C2(F)F)c(=O)n1` gave an IC50 of greater than 2 µM (SARS-CoV-2; viral replication; Huh-7).
The EC50 of `CN1CCC(=C2c3ccccc3Oc3ccc(Cl)cc32)CC1` is reported as greater than 20 µM (SARS-CoV-2; viral replication, GFP plate reader screen; cell-based).
With `Cc1cccc(CN2CCN(C(c3ccccc3)c3ccc(Cl)cc3)CC2)c1` (stereo not shown) the IC50 was greater than 10 µM (SARS-CoV-2; viral replication; A549 expressing ACE2; inactive set pIC50 4).
`COc1cc(C2C(C#N)=C(N)Oc3c2c(C)nn3-c2ccc(Cl)cc2)cc(OC)c1OC` (stereo not shown) gave a viral titre of 236000 IU/mL (SARS-CoV-2; Vero; 10 µM).
`CO[C@@]1(NC(=O)Cc2cccs2)C(=O)N2C(C(=O)O)=C(COC(N)=O)CS[C@@H]21` has an IC50 of greater than 2 µM (SARS-CoV-2; viral replication; Huh-7).
`CC(C)(C)[C@H](NC(=O)C(F)(F)F)C(=O)N1C[C@H]2[C@@H]([C@H]1C(=O)N[C@H](C#N)C[C@@H]1CCNC1=O)C2(C)C` has an EC90 of 8.8 ± 2.8 µM (SARS-CoV-2; viral replication, qRT-PCR of viral RNA; Calu-3, Washington).
`C=CCN1CC[C@@]2(C)c3cc(O)ccc3C[C@@H]1[C@@H]2C` has an IC50 of greater than 10 µM (SARS-CoV-2; viral replication, anti-nucleoprotein immunostaining; Vero E6).
`CCCCCOc1ccc(-c2ccc(-c3ccc(C(=O)N[C@H]4C[C@@H](O)[C@@H](O)NC(=O)[C@@H]5[C@@H](O)[C@@H](C)CN5C(=O)[C@H]([C@@H](C)O)NC(=O)[C@H]([C@H](O)[C@@H](O)c5ccc(O)cc5)NC(=O)[C@@H]5C[C@@H](O)CN5C(=O)[C@H]([C@@H](C)O)NC4=O)cc3)cc2)cc1` has a selectivity index of 8 (SARS-CoV-2; Vero; relative to: CC50 over IC50).
`COC(=O)C1=C(C)NC(C)=C(C(=O)OC)C1c1ccccc1[N+](=O)[O-]` has an IC50 of greater than 2 µM (SARS-CoV-2; viral replication; Huh-7).
The EC50 of `Clc1cnn(CCCCN2CCN(c3ncccn3)CC2)c1` is reported as 2.34 µM (SARS-CoV-2; viral replication, GFP plate reader screen; cell-based).
`CN(C)C(=O)COC(=O)Cc1ccc(OC(=O)c2ccc(NC(=N)N)cc2)cc1`: “viral replication inhibition” “inactive” (SARS-CoV-2; Vero E6; concentration not given, NYC laboratory).
Under “viral titre log reduction”, `Cc1nn(-c2ccc(Cl)cc2)c2c1C(c1ccc(I)cc1)C(C#N)=C(N)O2` (stereo not shown) is recorded as 0.378 log10 (SARS-CoV-2; Vero C1008; 10 µM; relative to: positive control).
`CC(C)=CCc1c(O)ccc(C(=O)/C=C/c2ccc(O)cc2)c1O` gave a CPE inhibition of 0% (SARS-CoV-2; viral replication; Vero E6; 1.562 µM; relative to: mean of replicates).
`Clc1ccc(C(OCCN2CCCCC2)c2ccccc2)cc1` (stereo not shown) — result for activity class: “active” (SARS-CoV-2; viral replication; Vero E6; concentration not given).
With `CC1CCN(CCCC(=O)c2ccc(F)cc2)CC1` the IC50 was greater than 10 µM (SARS-CoV-2; viral replication, RT-qPCR; A549-ACE2).
`COC(=O)[C@@H](Cc1ccc(O)c(O)c1)OC(=O)/C=C/c1ccc(O)c(O)c1` gave an inhibition of 0.485% (rep main protease; reporter gene (Gaussia luciferase), inhibitor; HEK293T; 20 µM).
`COc1cc(C(=O)OCCN2CCN(CCCN3c4ccccc4Sc4ccc(Cl)cc43)CC2)cc(OC)c1OC` has an EC50 of 18.6 µM (SARS-CoV-2; viral replication, GFP plate reader screen; cell-based).
The maximum response of `CCN(CC)CCNC(=O)c1ccc(-c2nc(CN3CCc4ccccc43)c(C)o2)cc1` is reported as 98.1% (SARS-CoV-2; cytopathic effect; USA_WA1/2020; round 2, 5-point).
With `CC[C@H](C)[C@H](NC(=O)[C@H](CC(C)C)NC(=O)[C@H](Cc1c[nH]c2ccccc12)NC(=O)[C@H](CCC(N)=O)NC(=O)[C@@H](NC(=O)[C@H](Cc1ccccc1)NC(=O)[C@H](C)NC(=O)[C@H](CCCCNC(=O)COCCOCCNC(=O)COCCOCCNC(=O)CC[C@H](NC(=O)CCCCCCCCCCCCCCCCCCC(=O)O)C(=O)O)NC(=O)[C@H](CCC(N)=O)NC(=O)[C@H](C)NC(=O)[C@@H](NC(=O)[C@H](CCCCN)NC(=O)[C@H](CC(=O)O)NC(=O)[C@H](CC(C)C)NC(=O)C(C)(C)NC(=O)[C@@H](NC(=O)[C@H](CO)NC(=O)[C@H](Cc1ccc(O)cc1)NC(=O)[C@H](CC(=O)O)NC(=O)[C@H](CO)NC(=O)[C@@H](NC(=O)[C@H](Cc1ccccc1)NC(=O)[C@@H](NC(=O)CNC(=O)[C@H](CCC(=O)O)NC(=O)C(C)(C)NC(=O)[C@@H](N)Cc1ccc(O)cc1)[C@@H](C)O)[C@@H](C)O)[C@@H](C)CC)[C@@H](C)CC)C(C)C)C(=O)N[C@@H](C)C(=O)NCC(=O)NCC(=O)N1CCC[C@H]1C(=O)N[C@@H](CO)C(=O)N[C@@H](CO)C(=O)NCC(=O)N[C@@H](C)C(=O)N1CCC[C@H]1C(=O)N1CCC[C@H]1C(=O)N1CCC[C@H]1C(=O)N[C@@H](CO)C(N)=O` the serum AST was 28.1 ± 15.5 U/L (healthy subjects, single ascending dose; 8.0 mg, day 29).
`C[C@H]1CN(C[C@H](Cc2ccccc2)C(=O)NCC(=O)O)CC[C@@]1(C)c1cccc(O)c1` gave an IC50 of greater than 2 µM (SARS-CoV-2; viral replication; Huh-7).
With `CC(C)(C)[C@H](NC(=O)C(F)(F)F)C(=O)N1C[C@H]2[C@@H]([C@H]1C(=O)N[C@H](C#N)C[C@@H]1CCNC1=O)C2(C)C` the EC90 was 0.0376 ± 0.0172 µM (SARS-CoV-2; viral replication; Omicron BA.1 strain; 24 h).
The inhibition of `Cc1ncc(NC(=O)c2ccc(CN3CCN(C)CC3)c(C(F)(F)F)c2)cc1Nc1nccc(-c2cccnc2)n1` is reported as 42.4% (SARS-CoV-2; viral replication; Vero E6, USA-WA1/2020; 2.5 µM).
With `COc1ccc(O)cc1OC` the inhibition was -0.415% (rep main protease; reporter gene (Gaussia luciferase), inhibitor; 20 µM).
For `Nc1ncnc2c([C@@H]3N[C@H](CO)[C@@H](O)[C@H]3O)c[nH]c12`, the inhibition was 0% (Japanese encephalitis virus; viral replication, inhibitor; Vero 76; 0.9 µM).
`COc1ccc2c(c1)c(CC(=O)O)c(C)n2C(=O)c1ccc(Cl)cc1` — result for “viral replication inhibition”: “inactive” (SARS-CoV-2; Vero E6; concentration not given, NYC laboratory).
For `COc1ccc2c(c1)CCC(c1ccccc1)=C2c1ccc(OCCN2CCCC2)cc1`, the EC50 was greater than 100 µM (SARS-CoV-2; viral replication, GFP plate reader screen; cell-based).
`Cc1nn(-c2ccc(Cl)cc2)c2c1C(c1ccc(Cl)cc1Cl)C(C#N)=C(N)O2` (stereo not shown) has a Ct value of 25.4 cycles (SARS-CoV-2; RT-qPCR, item: viral RNA; Vero; 10 µM; higher means less virus).
For `COc1ccc(Nc2nc(Nc3ccc(OC)cc3OC)nc(N3CCOCC3)n2)c(OC)c1`, the efficacy was 87.5% (SARS-CoV-2; cytopathic effect, cell-based CPE; USA_WA1/2020; round 2, 5-point dilution).
`C[C@@H]1CN(c2ncc(C(O)CO)cc2Cl)CCN1c1nc2c(-c3cc(F)c(F)c(F)c3)cc(C(F)(F)F)cc2[nH]1` (stereo partly shown) has an EC90 of greater than 2.5 µM (SARS-CoV-2; viral replication; 293T-ACE2, USA-WA1/2020).
For `O=c1[nH]c(=O)n([C@H]2C[C@H](O)[C@@H](CO)O2)cc1/C=C/Br`, “viral replication inhibition” read “inactive” (SARS-CoV-2; Vero E6; concentration not given, NYC laboratory).
`N#Cc1ccc2c(c1)N(CCCN1CCC(O)CC1)c1ccccc1S2` has an EC50 of greater than 20 µM (SARS-CoV-2; viral replication, GFP plate reader screen; cell-based).
With `Cc1ccc(NS(=O)(=O)c2cccc(C(=O)NC3CCN(c4ncnc5[nH]cnc45)CC3)c2)cc1` the relative infection was 44.4% (SARS-CoV-2; A549-ACE2, Wuhan-Hu-1; 22.22 µM; relative to: untreated).
`O=C(/C=C/c1ccc(O)c(O)c1/C=C/c1ccc(O)c(O)c1)O[C@H](Cc1ccc(O)c(O)c1)C(=O)O` has a CPE inhibition of 0% (SARS-CoV-2; viral replication; Vero E6; 3.125 µM; relative to: mean of replicates).
For `COc1ccccc1-c1cccc(CN2CCCC(C(=O)NCc3ccc(F)cc3)C2)c1` (stereo not shown), the efficacy was 67.2% (SARS-CoV-2; cytopathic effect; USA_WA1/2020; retest, 8-point, duplicates).
`Cn1cnc(Cn2c(=O)[nH]/c(=N\c3cc4cn(C)nc4cc3Cl)n(Cc3cc(F)c(F)cc3F)c2=O)n1`: “anaemia TEAE, Mild severity” 3.1% (human, all renal function groups; oral, 375 mg).
For `Cc1cc(OCC(O)CN2CCN(c3cccc(Cl)c3)CC2)ccc1Cl` (stereo not shown), the efficacy was 88.3% (SARS-CoV-2; cytopathic effect; USA_WA1/2020; round 1, 5-point).
With `Cc1[nH]c(/C=C2\C(=O)Nc3ccccc32)c(C)c1CCC(=O)O` the EC50 was greater than 25.1 µM (SARS-CoV-2; viral replication, high-content imaging screen; cell-based).
The AC50 of `COc1ccc(Cl)cc1NC(=O)CSc1nc2ccccc2nc1N1CCCCC1` is reported as 12.6 µM (SARS-CoV-2; cytopathic effect, cell-based CPE; USA_WA1/2020; round 1, 5-point dilution).
With `CCN(CC)CCOC(=O)C(O)(c1ccccc1)c1ccccc1` the IC50 was greater than 10 µM (SARS-CoV-2; viral replication; Vero E6; inactive set pIC50 4).
For `NC(=O)C1CN(CCCCC(c2ccc(F)cc2)c2ccc(F)cc2)CCN1CC(=O)Nc1c(Cl)cc(N)cc1Cl` (stereo not shown), the EC50 was greater than 100 µM (SARS-CoV-2; viral replication, GFP plate reader screen; cell-based).

Excerpt of the above:
`C[C@H]1CN(C[C@H](Cc2ccccc2)C(=O)NCC(=O)O)CC[C@@]1(C)c1cccc(O)c1` gave an IC50 of greater than 2 µM (SARS-CoV-2; viral replication; Huh-7).
With `CC(C)(C)[C@H](NC(=O)C(F)(F)F)C(=O)N1C[C@H]2[C@@H]([C@H]1C(=O)N[C@H](C#N)C[C@@H]1CCNC1=O)C2(C)C` the EC90 was 0.0376 ± 0.0172 µM (SARS-CoV-2; viral replication; Omicron BA.1 strain; 24 h).
The inhibition of `Cc1ncc(NC(=O)c2ccc(CN3CCN(C)CC3)c(C(F)(F)F)c2)cc1Nc1nccc(-c2cccnc2)n1` is reported as 42.4% (SARS-CoV-2; viral replication; Vero E6, USA-WA1/2020; 2.5 µM).
